Values quoted from earlier work as cited in several papers.
Compare with care: the assays were run in different laboratories. ± marks the error that the study gave.

SMILES	tested on	assay	conditions	scale	quantity	result
C[C@@H](Nc1c(-c2c(F)cc(C#CCCO)cc2F)c(Cl)nc2ncnn12)C(C)(C)C	HEK293		1 µM, 4 h, unit not given	reference: vehicle (DMSO)	total α-tubulin level	0.98 ± 0.04
Cc1ccc(C(C)C)c(O)c1/C=N/N=C1/SC(CC(=O)O)C(=O)N1c1ccccc1 (stereo not shown)	COX-2				IC50	58 nM
Cc1n[nH]c(S/C(=C/c2ccc(-c3cccc(C(=O)O)c3)o2)C(=O)O)n1	MurA (Escherichia coli)	enzyme activity, inhibitor			IC50	1000 nM
O=C(O)COc1ccc(Br)cc1/C=N/NC(=O)c1ccc(Cl)cc1	COX-2				IC50	60 ± 10 nM
CN(C)CCCOc1cc(F)c(-c2c(Cl)nc3ncnn3c2NCC2CCC2)c(F)c1	HEK293		1 µM, 4 h, unit not given	reference: vehicle (DMSO)	acetylated α-tubulin level	1.49 ± 0.18
O=C1N=C(Nc2nc(-c3ccccc3)cs2)S/C1=C/c1ccc(Cl)cc1	COX-2	inhibitor	concentration not given		inhibition	34%
N#CC1=C(N)Oc2c(oc(CO)cc2=O)C1c1ccc(OCc2ccc(F)cc2)cc1 (stereo not shown)	tyrosinase	enzyme activity, inhibitor			Ki	7570 nM
O=C(O)COc1ccc(Br)cc1C=NNC(=O)Cc1ccccc1 (mixture of isomers)	COX-2				IC50	60 ± 10 nM
O=C(/C=C/c1cc(=O)c(O)co1)OCCOCCO	tyrosinase	enzyme activity, inhibitor			IC50	26500 nM
CC(C)(C)C(=O)NC(C(=O)NO)c1ccc(-c2ccsc2)cc1 (stereo not shown)	Plasmodium falciparum aminopeptidase M1	inhibitor			Ki	640 nM
O=C(O)COc1ccc(Br)cc1/C=N/NC(=O)c1ccccc1	COX-2				IC50	80 ± 10 nM
CC(C)(C)OC(=O)NC(C(=O)NO)c1ccc(Br)cc1 (stereo not shown)	Plasmodium falciparum aminopeptidase M1	inhibitor			Ki	27 nM
COc1cccc(Cn2cc(-c3cccc(NC(=O)Nc4ccc(Br)cc4)c3)nn2)c1	IDO1	enzyme activity			IC50	750 nM

For quick reference, copied from above:
SMILES	tested on	assay	conditions	scale	quantity	result
CC(C)(C)C(=O)NC(C(=O)NO)c1ccc(-c2ccsc2)cc1 (stereo not shown)	Plasmodium falciparum aminopeptidase M1	inhibitor			Ki	640 nM
